{"data": "Experimental data gathered from unrelated publications", "note": "Parts stem from different laboratories: compare values within a part only. Positions count from the first letter of the parent shown."}
{"data": "Study 1", "target": "Fragile X messenger ribonucleoprotein 1, C-terminal low-complexity region (Fmr1, Mus musculus, UniProt P35922)", "method": "RNA Bind-n-Seq", "molecule type": "RNA", "sample": "in vitro", "concentration": "200 nM", "setting": "whole 134-nt RNA, ends assumed", "added": "150 mM LiCl", "relative to": "input library", "reading": "higher = stronger binding", "library": "7-deaza-guanosine replaces G", "shared flanks, not repeated": "GGGAGUUCUACAGUCCGACGAUC … UGGAAUUCUCGGGUGUCAAGG"}
{"Strand": "CUGUGCUACACAUCGUAUGUACCGAAUCGGGUUUUUUUGGGGUUUUUUUGGUUUUUUUGGGGAAAGUAUUAUGUUACGCCGUUCGGAUCU", "log2 enrichment": 0.973}
{"Strand": "GAAAAUUUCUCAGUUCUUAAGAAUGCUUGCUGUGGGUAUAGUGCAGGUAUAUUGAAAGGAAUUUUUUUCUUGCAGCGGGAAAGAGACAUG", "log2 enrichment": -3.27}
{"Strand": "CUCAAGUCCUGUGCUACACAUCGUAUGUACCGAAUCGGGAAGGGAAGGAAGGGAAAGUAUUAUGUUACGCCGUUCGGAUCUGCACUUCCA", "log2 enrichment": -0.544}
{"Strand": "GUCCUGUGCUACACAUCGUAUGUACCGAAUCGGCCCCCGGGGCCCCCGGCCCCCGGGGAAAGUAUUAUGUUACGCCGUUCGGAUCUGCAC", "log2 enrichment": -2.86}
{"Strand": "UCCUGUGCUACACAUCGUAUGUACCGAAUCAAAUUUUUUUAAACCCAAAUUUUUUUAAAAAAGUAUUAUGUUACGCCGUUCGGAUCUGCA", "log2 enrichment": -2.14}
{"Strand": "GUCCUGUGCUACACAUCGUAUGUACCGAAUCGGAAAAAGGGGAAAAAGGAAAAAGGGGAAAGUAUUAUGUUACGCCGUUCGGAUCUGCAC", "log2 enrichment": 0.314}
{"Strand": "CACAGACAACACGCACCCACACAGACACAGAGGGAAGGGGUUGGGAUGGGGACAGGGUGCACAUCAGGGCGGGGUAGGACCCCAGCCCCU", "log2 enrichment": 0.222}
{"Strand": "UCCUCAAGUCCUGUGCUACACAUCGUAUGUACCGAAUCGGGCGGCGGCGGGAAAGUAUUAUGUUACGCCGUUCGGAUCUGCACUUCCAGC", "log2 enrichment": 0.957}
{"data": "Study 2", "target": "RING finger protein unkempt homolog, zinc fingers 1-6, GST-SBP tag (UNK, Homo sapiens, UniProt Q9C0B0, residues 30-357)", "method": "RNA Bind-n-Seq", "molecule type": "RNA", "sample": "in vitro", "concentration": "not given", "setting": "RNA with constant flanks, human and mouse sites, ends assumed", "relative to": "input RNA pool", "reading": "higher = stronger binding", "shared flanks, not repeated": "GGGAGUUCUACAGUCCGACGAUC … CAACAGAGGAUUGAGCAUCA", "chain of UniProt Q9C0B0 (30-357, looked up)": "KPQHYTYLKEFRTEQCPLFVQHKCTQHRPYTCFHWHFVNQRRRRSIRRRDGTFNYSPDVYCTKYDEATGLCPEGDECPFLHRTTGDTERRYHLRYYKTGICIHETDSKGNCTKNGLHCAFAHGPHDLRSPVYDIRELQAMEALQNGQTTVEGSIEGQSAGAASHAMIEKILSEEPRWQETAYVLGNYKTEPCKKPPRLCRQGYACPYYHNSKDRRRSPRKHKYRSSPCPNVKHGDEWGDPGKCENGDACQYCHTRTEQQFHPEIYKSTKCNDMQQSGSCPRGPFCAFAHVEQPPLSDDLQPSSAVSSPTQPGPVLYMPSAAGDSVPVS"}
{"Strand": "GAUCACCAGGAGAUGAAUUUUGUAAGCAGCGCCUUCCUCAACUAAAUUCUAAGGAUAAUAAAUUUUUGACCUGUACAGAAGAAGAUGGGGUGCUGGUUUACCACCAUGCCCAGGAUGUCA", "bound/input enrichment": "0.247 ratio"}
{"Strand": "UUGCUGUCCAAAAUUGAUGGCGUGGAGCAGCUAAACAACAUCCUAGUCAUUGGAAUGACCAAUAGACCAGAUCUGAUAGAUGAGGCUCUUCUUAGACCUGGAAGACUGGAAGUUAAAAUG", "bound/input enrichment": "0.235 ratio"}
{"Strand": "CCUAGUCAUCCCCUUGAAUUAUCAGAAAAAAAUUUCCAGCUCAACCAAGAUAAAAUGAAUUUUUCCACACUGAGAAACAUUCAGGGUCUAUUUGCUCCGCUAAAAUUACAGAUGGAAUUC", "bound/input enrichment": "0.821 ratio"}
{"Strand": "GCUAUCCGAGAUGCAGGUUUUGAAAUCUCAGCUAUGCAGAUGUUCAAUAUGGAUCGGGUUAAUGUUGAGGAAUUCUAUGAAGUUUAUAAAGGAGUAGUGACCGAAUAUCAUGACAUGGUG", "bound/input enrichment": "0.43 ratio"}
{"Strand": "CUGGUUGAUGGUGUUAAGAAAUUGUCAAUCUCUACUCCUGACAGAGGAAAAGAAGAUUCUAGUACUCCAGUUAUGAAAGAUGAGAACACCCCCAUACCACAGGACACAAGAGGCUUAUCA", "bound/input enrichment": "0.441 ratio"}
{"Strand": "UAAUAUGGGUUUUGACAAAUGUGUAAUGACAUUUGUCAACCGUUAUAGUAUUAUACAGAAUAAUUUCACUGCCUUAAAAAAUCCUCUGUGUUUUACUUAUUCAUCCCUCCCUCUCCUUUA", "bound/input enrichment": "2.55 ratio"}
{"Strand": "UUUUCUGCAUCAAAAGACCACCGUCAAGAAGUCACAGUAAUAGAGUUCCAAGAGGCUAUUUUGGCUUGUAAAACCCCAAAGAAGACUACCUCCUCCAGACUGGAGUGGAAGAAGGUGGGA", "bound/input enrichment": "0.616 ratio"}
{"Strand": "UUCAUUCUGCUAUUCCAGAGACUUCAGAAUUCCAAAACAACCAAGUUUAUCAAGAGUUUUUUAGUCUUUAUUAAUUUGUAUUGCAUAAAAUAUGGGGCACUAGCACUACAAGAAAUAUUU", "bound/input enrichment": "7.02 ratio"}
{"data": "Study 3", "target": "CCNE1, cyclin fold, Cln2 fusion (human)", "method": "yeast growth competition, sequencing", "sample": "yeast", "setting": "strong parent motif", "relative to": "not given", "reading": "higher = stronger binding", "starting sequence": "E2F1 docking peptide (human); PPVKRRLDLETDH"}
{"Change": "T11R", "normalised enrichment score": 0.818}
{"Change": "P2Q", "normalised enrichment score": 0.954}
{"Change": "R5T", "normalised enrichment score": -0.189}
{"Change": "P1W", "normalised enrichment score": 2.47}
{"Change": "P1Y", "normalised enrichment score": 2.44}
{"Change": "E10M", "normalised enrichment score": 1}
{"Change": "V3D", "normalised enrichment score": 0.000447}
{"Change": "R6E", "normalised enrichment score": 0.916}
{"Change": "E10G", "normalised enrichment score": 2.38}
{"Change": "H13Y", "normalised enrichment score": 2.18}
{"data": "Other studies, line by line"}
{"Substance": "PhoQ, residues 284 288 289 292 302 303 SSTMSV", "target": "PhoP, residues 12 14 15 18 19 LFHKL (Escherichia coli, UniProt P23836)", "assay": "Sort-seq, refers to: YFP reporter", "system": "E. coli", "setting": "PhoQ-PhoP variant library, added: 10 µM Mg2+", "scale": "relative to: high Mg2+ state, higher = stronger signaling", "measurement": "fold induction", "value": 10.1}
{"note": "Excerpt of the above (study 1):"}
{"Strand": "CUGUGCUACACAUCGUAUGUACCGAAUCGGGUUUUUUUGGGGUUUUUUUGGUUUUUUUGGGGAAAGUAUUAUGUUACGCCGUUCGGAUCU", "log2 enrichment": 0.973}
{"Strand": "UCCUGUGCUACACAUCGUAUGUACCGAAUCAAAUUUUUUUAAACCCAAAUUUUUUUAAAAAAGUAUUAUGUUACGCCGUUCGGAUCUGCA", "log2 enrichment": -2.14}
{"Strand": "GUCCUGUGCUACACAUCGUAUGUACCGAAUCGGCCCCCGGGGCCCCCGGCCCCCGGGGAAAGUAUUAUGUUACGCCGUUCGGAUCUGCAC", "log2 enrichment": -2.86}
